Published values pooled from the literature.
Protocols differ between the studies behind these lines. Several values in a cell are separate wells, animals, samples, runs or records. ± gives the spread as reported.
ABCC3: ATP-binding cassette sub-family C member 3 (ABCC3, Homo sapiens, UniProt O15438)
Chain of UniProt O15438 (whole entry, looked up): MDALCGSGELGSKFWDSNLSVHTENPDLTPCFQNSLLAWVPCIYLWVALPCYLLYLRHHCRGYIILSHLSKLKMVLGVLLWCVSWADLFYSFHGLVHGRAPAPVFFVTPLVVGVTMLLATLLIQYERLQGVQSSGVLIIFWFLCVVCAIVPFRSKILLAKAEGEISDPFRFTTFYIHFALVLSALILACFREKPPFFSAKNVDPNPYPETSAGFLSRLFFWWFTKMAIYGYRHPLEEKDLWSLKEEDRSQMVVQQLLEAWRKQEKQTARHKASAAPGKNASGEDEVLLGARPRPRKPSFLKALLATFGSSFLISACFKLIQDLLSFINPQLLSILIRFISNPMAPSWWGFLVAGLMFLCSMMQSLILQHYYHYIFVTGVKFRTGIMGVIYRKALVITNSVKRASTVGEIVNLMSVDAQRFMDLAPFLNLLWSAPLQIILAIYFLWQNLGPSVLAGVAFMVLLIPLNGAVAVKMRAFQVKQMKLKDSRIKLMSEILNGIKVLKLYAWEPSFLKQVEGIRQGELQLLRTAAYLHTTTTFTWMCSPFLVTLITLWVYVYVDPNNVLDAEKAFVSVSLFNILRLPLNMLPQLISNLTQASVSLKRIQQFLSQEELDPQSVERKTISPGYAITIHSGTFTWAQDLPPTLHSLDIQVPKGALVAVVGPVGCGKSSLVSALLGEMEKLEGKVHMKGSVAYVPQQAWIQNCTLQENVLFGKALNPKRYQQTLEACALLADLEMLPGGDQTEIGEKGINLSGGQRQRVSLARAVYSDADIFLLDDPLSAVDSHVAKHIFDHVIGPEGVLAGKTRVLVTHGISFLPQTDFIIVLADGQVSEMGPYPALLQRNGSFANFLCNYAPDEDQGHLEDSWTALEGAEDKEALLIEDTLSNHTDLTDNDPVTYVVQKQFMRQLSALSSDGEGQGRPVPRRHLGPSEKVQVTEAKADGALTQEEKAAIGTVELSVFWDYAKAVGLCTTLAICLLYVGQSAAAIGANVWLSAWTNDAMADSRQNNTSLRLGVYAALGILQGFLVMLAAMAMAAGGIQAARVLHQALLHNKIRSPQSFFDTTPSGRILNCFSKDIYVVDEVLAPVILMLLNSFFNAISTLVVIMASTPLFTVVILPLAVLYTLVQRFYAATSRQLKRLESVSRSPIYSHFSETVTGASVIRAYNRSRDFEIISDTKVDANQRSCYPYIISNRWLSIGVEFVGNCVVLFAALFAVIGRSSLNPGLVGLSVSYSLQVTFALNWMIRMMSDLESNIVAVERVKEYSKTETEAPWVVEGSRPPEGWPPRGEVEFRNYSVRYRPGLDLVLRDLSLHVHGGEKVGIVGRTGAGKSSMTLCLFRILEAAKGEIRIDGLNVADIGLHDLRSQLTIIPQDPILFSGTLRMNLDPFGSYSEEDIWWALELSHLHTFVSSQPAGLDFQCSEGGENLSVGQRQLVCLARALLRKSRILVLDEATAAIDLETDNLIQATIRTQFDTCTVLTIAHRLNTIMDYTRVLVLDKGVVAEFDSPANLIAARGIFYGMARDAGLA
KCNH2: Voltage-gated inwardly rectifying potassium channel KCNH2 (KCNH2, Homo sapiens, UniProt Q12809)
Chain of UniProt Q12809 (whole entry, looked up): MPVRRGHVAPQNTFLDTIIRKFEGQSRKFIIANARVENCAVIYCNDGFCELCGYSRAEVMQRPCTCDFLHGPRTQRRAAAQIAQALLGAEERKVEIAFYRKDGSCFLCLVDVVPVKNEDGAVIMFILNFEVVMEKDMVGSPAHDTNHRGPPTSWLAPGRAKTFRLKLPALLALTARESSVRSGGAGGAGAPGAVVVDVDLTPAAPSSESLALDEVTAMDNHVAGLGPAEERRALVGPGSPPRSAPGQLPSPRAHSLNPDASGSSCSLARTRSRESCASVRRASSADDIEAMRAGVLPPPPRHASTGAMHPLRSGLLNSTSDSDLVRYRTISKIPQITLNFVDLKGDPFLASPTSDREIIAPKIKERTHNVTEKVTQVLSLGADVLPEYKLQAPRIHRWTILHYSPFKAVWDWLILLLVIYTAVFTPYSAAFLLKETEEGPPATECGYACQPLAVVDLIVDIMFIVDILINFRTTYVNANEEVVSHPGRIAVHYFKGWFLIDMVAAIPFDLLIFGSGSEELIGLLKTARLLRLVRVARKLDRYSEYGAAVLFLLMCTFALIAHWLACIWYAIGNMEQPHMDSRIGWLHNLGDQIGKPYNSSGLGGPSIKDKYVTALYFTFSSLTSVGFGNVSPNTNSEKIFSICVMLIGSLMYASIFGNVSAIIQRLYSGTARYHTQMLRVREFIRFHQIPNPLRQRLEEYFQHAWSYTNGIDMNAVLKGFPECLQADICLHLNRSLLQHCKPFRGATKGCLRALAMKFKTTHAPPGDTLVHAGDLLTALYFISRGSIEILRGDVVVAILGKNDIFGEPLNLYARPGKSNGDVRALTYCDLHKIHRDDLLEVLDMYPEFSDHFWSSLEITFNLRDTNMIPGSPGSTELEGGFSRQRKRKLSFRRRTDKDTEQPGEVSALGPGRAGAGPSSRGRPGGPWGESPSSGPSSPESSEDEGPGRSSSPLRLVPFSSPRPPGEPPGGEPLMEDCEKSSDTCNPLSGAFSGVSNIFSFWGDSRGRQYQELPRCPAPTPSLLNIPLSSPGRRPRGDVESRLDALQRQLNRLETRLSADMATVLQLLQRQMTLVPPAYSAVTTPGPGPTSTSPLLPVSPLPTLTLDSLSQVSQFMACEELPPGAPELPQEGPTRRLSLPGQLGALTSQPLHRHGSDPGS
Chain of UniProt P10632 (whole entry, looked up): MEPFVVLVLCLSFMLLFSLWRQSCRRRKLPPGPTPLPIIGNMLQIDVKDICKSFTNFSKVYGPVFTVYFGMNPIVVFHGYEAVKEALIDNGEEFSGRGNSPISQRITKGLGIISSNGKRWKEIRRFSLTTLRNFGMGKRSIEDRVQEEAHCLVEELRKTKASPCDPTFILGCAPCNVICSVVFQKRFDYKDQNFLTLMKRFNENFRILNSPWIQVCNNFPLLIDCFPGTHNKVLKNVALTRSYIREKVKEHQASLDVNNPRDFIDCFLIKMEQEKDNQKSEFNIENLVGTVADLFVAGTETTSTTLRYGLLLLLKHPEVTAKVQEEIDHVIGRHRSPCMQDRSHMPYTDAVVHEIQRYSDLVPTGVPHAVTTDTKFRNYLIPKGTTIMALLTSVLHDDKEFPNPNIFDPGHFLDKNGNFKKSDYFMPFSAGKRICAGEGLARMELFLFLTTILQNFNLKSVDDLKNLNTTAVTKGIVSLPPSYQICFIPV

O=C(c1ccc(OCCN2CCCCC2)cc1)c1c(-c2ccc(O[C@@H]3O[C@H](C(=O)O)[C@@H](O)[C@H](O)[C@H]3O)cc2)sc2cc(O)ccc12 — inhibition (ABCC3; transporter uptake, inhibitor; Sf9; 10 µM, pH 7, cell membranes): > 75%
O=C(O)c1ccc(/C=C2\SC(=S)N(Cc3cccc(C(F)(F)F)c3)C2=O)cc1 — inhibition (KCNH2; ion current, inhibitor, patch clamp; CHO; 3 µM): -3.38%
Cc1cc(/C=C/C#N)cc(C)c1Oc1nc(NC2CCN(Cc3ccc(S(C)(=O)=O)cc3)CC2)nc2ncccc12 — inhibition (KCNH2; hERG current, manual patch clamp; CHO stably expressing hERG; 30 µM): 94.2%
COc1cc2nc(c1)CNCc1cc(OC)cc(n1)CNC2.[Cu+2] — anodic peak potential (Cu(II)/Cu(I) redox couple; cyclic voltammetry; DMF; together with: TBAP; baseline: Fc/Fc+): -743 mV
O=C(Nc1cnccc1-c1ccc([18F])cc1)c1ccnc(NC(=O)C2CC2)c1 — SUV (GSK-3β imaging tracer; FVB/NJ mice, both sexes, brain; intravenous, 3 min, early frames, no P-gp inhibitor): 0.77 ± 0.19
O=C1NC2(CC2)COc2ncc(F)cc2[C@H]2COCCN2c2ccn3ncc1c3n2 — inhibition (KCNH2; potassium current, whole-cell patch clamp; CHO cells expressing hERG; 0.16 µM): 3.75 ± 2.3%
O=C(O)CN1CCN(Cc2cccc(C(=O)O)n2)CCN(CP(=O)(O)O)CC1 — log K1-11 stability constant (Y3+; UV-vis spectrophotometric titration; [M(L)(OH)]2- complex): 11.3
FC(F)(F)c1cc2nc(c1)CNCc1cc(C(F)(F)F)cc(n1)CNC2.[Cu+2] — peak potential separation (Cu(II)/Cu(I) redox couple; cyclic voltammetry; DMF; 0.1 M TBAP, 100 mV/s scan): 283 mV
O=C(Nc1cnccc1-c1ccc([18F])nc1)c1ccnc(NC(=O)C2CC2)c1 — SUV (GSK-3β imaging tracer; FVB/NJ mice, both sexes, brain; intravenous, 1 min, early frames, no P-gp inhibitor): 0.45 ± 0.2
Ic1cc2nc(c1)CNCc1cc(I)cc(n1)CNC2.[Cu+2] — anodic peak potential (Cu(II)/Cu(I) redox couple; cyclic voltammetry; DMF; together with: TBAP; baseline: Fc/Fc+): -636 mV
O=C(O)CN1CCN(CC(=O)O)CCN(Cc2cccc(P(=O)(O)O)n2)CC1 — log K101 stability constant (Y3+; UV-vis spectrophotometric titration; [M(L)]- complex): 23.5
Clc1cc2nc(c1)CNCc1cc(Cl)cc(n1)CNC2.[Cu+2] — anodic peak potential (Cu(II)/Cu(I) redox couple; cyclic voltammetry; DMF; together with: TBAP; baseline: Fc/Fc+): -601 mV
O=C(c1ccc(OCCN2CCCCC2)cc1)c1c(-c2ccc(O[C@@H]3O[C@H](C(=O)O)[C@@H](O)[C@H](O)[C@H]3O)cc2)sc2cc(O[C@@H]3O[C@H](C(=O)O)[C@@H](O)[C@H](O)[C@H]3O)ccc12 — intrinsic clearance (ABCC3; substrate; Sf9 membrane vesicles; pH 7): 6.54 µL/min/mg protein
[Cu+2].c1cc2nc(c1)CNCc1cccc(n1)CNC2 — peak potential separation (Cu(II)/Cu(I) redox couple; cyclic voltammetry; DMF; 0.1 M TBAP, 100 mV/s scan): 99 mV
CNC(=O)C1CCCN(C(=O)C2CC3CCC2N3C(=O)[C@@H]2C[C@@H](O)CN2C(=O)NCc2cccc(Cl)c2F)C1 (mixture of isomers) — remaining activity (Cytochrome P450 2C8 (CYP2C8, Homo sapiens, UniProt P10632); preincubation with NADPH; human; 0.0686 µM; baseline: negative control): 92.3% and 88% and 101%

Excerpt of the above:
Ic1cc2nc(c1)CNCc1cc(I)cc(n1)CNC2.[Cu+2] — anodic peak potential (Cu(II)/Cu(I) redox couple; cyclic voltammetry; DMF; together with: TBAP; baseline: Fc/Fc+): -636 mV
